Measured values from different studies.
Each numbered part is a random draw from the data of one study; scales do not carry over between parts.

Block 1
Target: Ras GTPase-activating protein-binding protein 1, RRM domain (G3BP1, Homo sapiens, UniProt Q13283)
Chain of UniProt Q13283 (whole entry, looked up): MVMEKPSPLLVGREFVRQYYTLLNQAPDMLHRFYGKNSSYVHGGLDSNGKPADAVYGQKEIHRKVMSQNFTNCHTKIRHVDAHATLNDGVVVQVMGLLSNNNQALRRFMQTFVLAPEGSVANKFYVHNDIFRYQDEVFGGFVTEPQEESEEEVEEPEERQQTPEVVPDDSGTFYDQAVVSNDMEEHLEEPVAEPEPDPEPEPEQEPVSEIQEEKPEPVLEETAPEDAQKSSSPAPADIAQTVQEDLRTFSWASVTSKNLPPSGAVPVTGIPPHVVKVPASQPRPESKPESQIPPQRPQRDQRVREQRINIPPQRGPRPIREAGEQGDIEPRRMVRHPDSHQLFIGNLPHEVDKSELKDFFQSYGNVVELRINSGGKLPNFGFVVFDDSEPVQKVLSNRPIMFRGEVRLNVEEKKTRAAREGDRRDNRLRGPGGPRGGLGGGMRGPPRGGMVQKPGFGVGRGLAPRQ
Technique: RNA Bind-n-Seq
Molecule type: RNA
Sample: in vitro
Tested at: 1 µM
Setting: whole 134-nt RNA, ends assumed
Added: 150 mM KCl
Baseline: input library
Reading: higher = stronger binding
Oligonucleotide | log2 enrichment
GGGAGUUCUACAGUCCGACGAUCAGUCCUGUGCUACACAUCGUAUGUACCGAAUCGGGUUUGGGUUUGGGAAAAAAAGGGAAAGUAUUAUGUUACGCCGUUCGGAUCUGCACUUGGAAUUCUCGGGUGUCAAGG | 0.243
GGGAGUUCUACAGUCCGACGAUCAAGUCCUGUGCUACACAUCGUAUGUACCGAAUCGGUUUUUUUGGUGGAAAAAAAGGAAAGUAUUAUGUUACGCCGUUCGGAUCUGCACUUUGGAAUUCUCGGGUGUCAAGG | -0.202
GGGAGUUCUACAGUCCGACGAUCUCCUCAAGUCCUGUGCUACACAUCGUAUGUACCGAAUCGGAGGAGGGAGGGGAAAGUAUUAUGUUACGCCGUUCGGAUCUGCACUUCCAGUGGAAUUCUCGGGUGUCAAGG | -0.153
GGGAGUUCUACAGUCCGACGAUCUGGGAGGUGGAUUUCGUUUAUUUUUUUAGCUCAUUUCCAGGGGUGGGAAUUUUUUUUUAAUAUGUGUCAUGAAUAAAGUUGUUUUUGAAAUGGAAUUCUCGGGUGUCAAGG | 1.52
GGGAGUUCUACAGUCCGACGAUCGCAGGAAGUAAAAACAAAUGGAAGUGCUUCGGAUAGUGGCAGGGGUGGGGGUUGCUAAGGAAAGGGUGGGAUGGGAGUGGGUAAAGAGUUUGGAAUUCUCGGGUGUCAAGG | 1.63
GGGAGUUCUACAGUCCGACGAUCUAACUUUAGGGGAGGAUCUGAUGGAUAUGGCAGUGGACGUGGAUUUGGGGAUGGCUAUAAUGGGUAUGGAGGAGGACCUGGAGGUGGCAAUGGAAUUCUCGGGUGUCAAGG | -0.818
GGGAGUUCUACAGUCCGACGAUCUGGGAGGUGGAUUUUGUUUAUUUUUUUAGCUCAUUUCCAGGGGUGGGAAUUUUUUUUUAAUAUGUGUCAUGAAUAAAGUAGUUUUUGAAAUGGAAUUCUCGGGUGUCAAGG | 1.5
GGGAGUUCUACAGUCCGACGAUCUCCUGUGCUACACAUCGUAUGUACCGAAUCAAAUUUUUAAACCCCCAAAUUUUUUUAAAAAAGUAUUAUGUUACGCCGUUCGGAUCUGCAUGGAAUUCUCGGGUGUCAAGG | -0.442
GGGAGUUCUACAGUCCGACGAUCUGAAGCGAGAAGCUGCCCUACCCCCAGUGAGCCCCCUGAAGGCGGCUCUCUCUGAGGAGGAGUUAGAGAAGAAAUCCAAGGCUAUCAUUGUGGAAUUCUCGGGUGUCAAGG | -0.197
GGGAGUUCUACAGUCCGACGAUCUUCCUCAAGUCCUGUGCUACACAUCGUAUGUACCGAAUCGGUGGUGGUGGGAAAGUAUUAUGUUACGCCGUUCGGAUCUGCACUUCCAGCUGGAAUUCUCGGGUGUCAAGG | -0.139

Block 2
Target: human cyclin A2
Effect on: peptide binding
Technique: competitive growth sequencing
Molecule type: peptide
Organism: Saccharomyces cerevisiae
Strain: cyclin A2-Cln2 fusion strain
Tested at: concentration not given
Setting: mutational scanning library
Baseline: unfused Cln2 strain
Reading: direction not given
Molecule | binding score
VVSADDAIQFTRV | 0.386
PSACANAFGPVDH | 0.0159
PCHRAVACFDSTT | 0.0868
SNARRSLNFGGST | 3.23
SKACARAFGPVDS | -0.22
TKVRRNLFNQELL | 1.84
YSPLLPPFGLSYT | 2.03
TSACRSLFGPVDH | 1.23

Block 3
Target: Histone acetyltransferase KAT6A, winged helix 1, GST fusion (KAT6A, Homo sapiens, UniProt Q92794, residues 1-85)
Technique: protein binding microarray
Molecule type: double-stranded DNA, one strand shown
Sample: in vitro
Tested at: not given
Setting: 8-mer, flanks averaged, mean of 2 arrays, mostly near background
Baseline: not given
Reading: higher = stronger binding
Residues (chain): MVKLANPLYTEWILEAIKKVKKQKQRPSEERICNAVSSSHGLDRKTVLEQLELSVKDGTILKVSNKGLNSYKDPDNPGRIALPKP
Oligonucleotide | E-score
TCCGGGCA | 0.0758
CAACAAGC | -0.0962
ACTTAAAC | -0.253
AGAGTTAA | -0.325
GAACAGAA | -0.12
ACACGCAT | 0.128
AAGGGGAG | -0.0253
ACAGCAGC | -0.134
GCCTACGC | 0.147
GGCCTTAC | 0.0968
CACTTTGC | -0.102
CCGCTCGC | 0.357
ATCGACAA | -0.0722
CGAACGTC | -0.000195
AGATCGTG | -0.235
ATCCTGTA | -0.321

Block 4
Target: RING finger protein unkempt homolog, zinc fingers 1-6, GST-SBP tag (UNK, Homo sapiens, UniProt Q9C0B0, residues 30-357)
Technique: RNA Bind-n-Seq
Molecule type: RNA
Sample: in vitro
Tested at: not given
Setting: RNA with constant flanks, ends assumed
Baseline: input RNA pool
Reading: higher = stronger binding
Target sequence (chain): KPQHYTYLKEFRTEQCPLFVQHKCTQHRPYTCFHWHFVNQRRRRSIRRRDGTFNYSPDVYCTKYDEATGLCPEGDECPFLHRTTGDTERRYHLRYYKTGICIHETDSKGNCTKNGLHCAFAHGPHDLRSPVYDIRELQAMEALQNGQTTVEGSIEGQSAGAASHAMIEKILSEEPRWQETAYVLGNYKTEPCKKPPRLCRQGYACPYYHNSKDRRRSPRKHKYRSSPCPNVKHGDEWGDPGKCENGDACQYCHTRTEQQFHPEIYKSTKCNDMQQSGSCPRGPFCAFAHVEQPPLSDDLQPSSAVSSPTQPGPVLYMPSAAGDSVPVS
Oligonucleotide | bound/input enrichment [ratio]
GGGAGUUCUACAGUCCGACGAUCUUAAUGUUUAAGUUCAAAUUAAUGUAGAGCCCUCCCUCUUUUGGGGGGUAAACUUUUUAAAUCCGGACUUACAGGAGAUCAAGAAGGAACUUUCAAAGACGGGUGAGGAGAAGUACAUAGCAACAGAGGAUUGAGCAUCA | 0.618
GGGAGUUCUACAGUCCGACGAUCCAGAUUUUGGCAGGAGUUAGAAUAAAUCCCGGGGCCUGGGCUUCUCUAUUCUUGGCCCUCCGCCGUCUCCCUCCGAGAGGAGGCCAGAGGGAGAGGAGGAUCUCAGCAGGCCUCUAGCCGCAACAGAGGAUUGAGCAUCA | 1.87
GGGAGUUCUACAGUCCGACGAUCGAUCUCAUCGUGGCUGACAGUAGUCGCAAGGAAAUUCUCCAUUUUCCUAAGGGUGGGGGCUACCGUGUCCUUAUUCGAGAGGGACUUACCUGUCCGGUGGGCAUAGCCCUAACUCCUAAGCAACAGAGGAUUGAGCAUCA | 0.0994
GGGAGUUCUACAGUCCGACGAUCGAAUUGGUACAAGCCAUGUUUCCCAAACUGAACAAUCAAGAAAGAGUUACACUGUCCGACCUUAUGACCGCCAAGAUAACGAGUGAUGAGCCACUCACCAAGGAUGACAUCCCUGUGUUUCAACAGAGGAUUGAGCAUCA | 0.136
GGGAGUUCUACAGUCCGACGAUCACCUUAGCUGUGGGACUCAUCAACAUGGCAGAGGUGAUGCAACACCCUAAUGAGGGCGCUUCCGUACUUGGCCUGCACAGCAAUGUGAAGGAUGUCUCUGUGCCAGUGGCAGAAAUAAAACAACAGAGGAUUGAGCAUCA | 0.142
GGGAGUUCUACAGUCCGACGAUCUUAGUGAACAGCACUGAUCUCUGUAUAGUCCCCAUCACUAAUGUCAGAACCCAGCGUAUGCCGCAUUUGUAUUGCAGUUUCCCUGGCUUCCUUUACGUUUUGCACUGAUGAAUUUUGACACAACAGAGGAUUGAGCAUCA | 0.148
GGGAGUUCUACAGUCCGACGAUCAUUGCUUCCUGGUAGUGUGGAAGAAACACAAGACCCUCAUUCCCAUUUCCAUUUCCAUUGCCGUCAAAGGUAUUGGCUUAGGUUUCUCCCGUGCUCCUUUCAUCCCCUCCCUGCCUGAGCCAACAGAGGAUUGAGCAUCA | 0.705
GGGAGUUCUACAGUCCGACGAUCUAUUCAGCCUGGGCAUUGCUCGCUGGGAGAGCCAGACCACCAGGCUCUUCCUCACCCUCCUCCGGAAGUGGUCUUCAGCACUGUUCUGACCCCAGGUGUUACCAGCUGGUUCAUCACAGGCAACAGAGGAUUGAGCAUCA | 0.133
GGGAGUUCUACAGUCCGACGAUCUUUCCUGUACCAAGCACCCAGCUCUCCUCUUGUUCUGAAAGGGAUUUCACAUCUUCAGCGCCGCUUCAGUACAUCAUCGGAGGAGUCUGCUGUCCCUAACACAGAGGGAGACCUCGCUUUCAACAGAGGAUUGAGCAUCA | 0.151
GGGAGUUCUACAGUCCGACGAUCGGCUUGGAGUUUGGCAAGUUACCAUUUGGUGCCUGCGAAGAUCCUAUUAGUGAACUCCAUUCCGCUACUACAUGGCCUCAUCUGACCGAAGGGAUCAUUGUGGAUAAUGAUGUUUAUUCUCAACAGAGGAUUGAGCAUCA | 0.0864
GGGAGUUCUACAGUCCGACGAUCAUGAACCUGCAGAUAGUGGACAGAGCCAUUCAGGUAGUCCGAAGUGCGUUGGCCAACCAGACCGACUGGACAGAAAUCGGAGUGAUUGUGAAAGAAGCUCAAGCUCAAGGAGACCCGGUUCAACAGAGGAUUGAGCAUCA | 0.135

Some of these lines once more (block 4):
Oligonucleotide | bound/input enrichment [ratio]
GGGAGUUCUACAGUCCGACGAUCUUAAUGUUUAAGUUCAAAUUAAUGUAGAGCCCUCCCUCUUUUGGGGGGUAAACUUUUUAAAUCCGGACUUACAGGAGAUCAAGAAGGAACUUUCAAAGACGGGUGAGGAGAAGUACAUAGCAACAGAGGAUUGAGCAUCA | 0.618
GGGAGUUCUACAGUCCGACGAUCGAAUUGGUACAAGCCAUGUUUCCCAAACUGAACAAUCAAGAAAGAGUUACACUGUCCGACCUUAUGACCGCCAAGAUAACGAGUGAUGAGCCACUCACCAAGGAUGACAUCCCUGUGUUUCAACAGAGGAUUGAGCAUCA | 0.136
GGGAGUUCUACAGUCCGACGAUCAUGAACCUGCAGAUAGUGGACAGAGCCAUUCAGGUAGUCCGAAGUGCGUUGGCCAACCAGACCGACUGGACAGAAAUCGGAGUGAUUGUGAAAGAAGCUCAAGCUCAAGGAGACCCGGUUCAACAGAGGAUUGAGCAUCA | 0.135
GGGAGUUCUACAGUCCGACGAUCUAUUCAGCCUGGGCAUUGCUCGCUGGGAGAGCCAGACCACCAGGCUCUUCCUCACCCUCCUCCGGAAGUGGUCUUCAGCACUGUUCUGACCCCAGGUGUUACCAGCUGGUUCAUCACAGGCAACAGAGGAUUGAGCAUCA | 0.133
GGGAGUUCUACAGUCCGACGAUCUUUCCUGUACCAAGCACCCAGCUCUCCUCUUGUUCUGAAAGGGAUUUCACAUCUUCAGCGCCGCUUCAGUACAUCAUCGGAGGAGUCUGCUGUCCCUAACACAGAGGGAGACCUCGCUUUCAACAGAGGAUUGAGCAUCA | 0.151
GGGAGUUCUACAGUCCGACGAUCACCUUAGCUGUGGGACUCAUCAACAUGGCAGAGGUGAUGCAACACCCUAAUGAGGGCGCUUCCGUACUUGGCCUGCACAGCAAUGUGAAGGAUGUCUCUGUGCCAGUGGCAGAAAUAAAACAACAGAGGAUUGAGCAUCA | 0.142
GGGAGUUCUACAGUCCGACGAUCGAUCUCAUCGUGGCUGACAGUAGUCGCAAGGAAAUUCUCCAUUUUCCUAAGGGUGGGGGCUACCGUGUCCUUAUUCGAGAGGGACUUACCUGUCCGGUGGGCAUAGCCCUAACUCCUAAGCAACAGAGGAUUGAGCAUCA | 0.0994
